Results gathered from unrelated publications.
A part holds a random share of what one study measured.
UniProt Q16816, sequence (whole entry, looked up): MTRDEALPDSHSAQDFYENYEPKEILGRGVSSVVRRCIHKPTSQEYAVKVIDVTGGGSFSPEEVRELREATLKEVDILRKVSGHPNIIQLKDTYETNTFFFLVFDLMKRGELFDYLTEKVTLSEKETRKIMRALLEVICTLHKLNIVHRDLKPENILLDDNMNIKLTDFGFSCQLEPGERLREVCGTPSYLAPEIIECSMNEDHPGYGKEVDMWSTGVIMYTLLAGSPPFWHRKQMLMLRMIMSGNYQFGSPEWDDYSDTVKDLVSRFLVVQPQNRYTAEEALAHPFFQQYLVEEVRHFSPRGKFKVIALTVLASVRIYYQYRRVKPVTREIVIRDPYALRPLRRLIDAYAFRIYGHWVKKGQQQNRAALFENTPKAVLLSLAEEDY
UniProt Q9Y2K2, sequence (whole entry, looked up): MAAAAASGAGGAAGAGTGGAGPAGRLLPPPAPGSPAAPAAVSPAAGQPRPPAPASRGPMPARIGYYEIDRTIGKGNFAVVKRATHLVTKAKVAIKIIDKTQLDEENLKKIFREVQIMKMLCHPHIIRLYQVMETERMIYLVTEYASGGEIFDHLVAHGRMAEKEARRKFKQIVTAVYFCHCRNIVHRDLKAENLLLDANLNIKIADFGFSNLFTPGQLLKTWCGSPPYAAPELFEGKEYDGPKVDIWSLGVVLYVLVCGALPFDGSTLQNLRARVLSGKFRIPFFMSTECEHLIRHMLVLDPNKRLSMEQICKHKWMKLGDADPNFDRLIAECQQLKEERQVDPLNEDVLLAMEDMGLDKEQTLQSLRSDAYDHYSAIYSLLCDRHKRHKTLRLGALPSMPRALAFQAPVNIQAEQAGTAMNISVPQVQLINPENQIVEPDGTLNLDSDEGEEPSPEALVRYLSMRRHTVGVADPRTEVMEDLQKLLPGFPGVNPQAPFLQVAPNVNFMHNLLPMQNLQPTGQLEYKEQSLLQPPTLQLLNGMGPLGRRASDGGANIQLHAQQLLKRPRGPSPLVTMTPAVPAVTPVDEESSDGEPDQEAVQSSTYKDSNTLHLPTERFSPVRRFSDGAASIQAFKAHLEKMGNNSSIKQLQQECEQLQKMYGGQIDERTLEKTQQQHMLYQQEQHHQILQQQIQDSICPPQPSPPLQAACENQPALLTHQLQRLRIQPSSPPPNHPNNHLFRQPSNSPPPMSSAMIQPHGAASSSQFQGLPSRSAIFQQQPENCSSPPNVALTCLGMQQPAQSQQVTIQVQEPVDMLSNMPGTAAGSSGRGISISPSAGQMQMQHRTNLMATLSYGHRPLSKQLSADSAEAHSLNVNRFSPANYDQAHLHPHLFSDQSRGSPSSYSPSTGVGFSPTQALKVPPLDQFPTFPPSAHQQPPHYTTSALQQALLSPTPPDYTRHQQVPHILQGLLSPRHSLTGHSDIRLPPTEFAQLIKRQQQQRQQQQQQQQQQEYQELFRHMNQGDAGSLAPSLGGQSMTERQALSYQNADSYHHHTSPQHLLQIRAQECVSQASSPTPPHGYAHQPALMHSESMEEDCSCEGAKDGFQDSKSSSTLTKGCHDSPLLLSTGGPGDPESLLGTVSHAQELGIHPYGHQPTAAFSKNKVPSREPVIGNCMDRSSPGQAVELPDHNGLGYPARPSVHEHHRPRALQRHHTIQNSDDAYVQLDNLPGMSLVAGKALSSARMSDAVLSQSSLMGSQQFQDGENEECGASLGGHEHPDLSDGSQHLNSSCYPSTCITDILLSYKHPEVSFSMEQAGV
UniProt P13945, sequence (whole entry, looked up): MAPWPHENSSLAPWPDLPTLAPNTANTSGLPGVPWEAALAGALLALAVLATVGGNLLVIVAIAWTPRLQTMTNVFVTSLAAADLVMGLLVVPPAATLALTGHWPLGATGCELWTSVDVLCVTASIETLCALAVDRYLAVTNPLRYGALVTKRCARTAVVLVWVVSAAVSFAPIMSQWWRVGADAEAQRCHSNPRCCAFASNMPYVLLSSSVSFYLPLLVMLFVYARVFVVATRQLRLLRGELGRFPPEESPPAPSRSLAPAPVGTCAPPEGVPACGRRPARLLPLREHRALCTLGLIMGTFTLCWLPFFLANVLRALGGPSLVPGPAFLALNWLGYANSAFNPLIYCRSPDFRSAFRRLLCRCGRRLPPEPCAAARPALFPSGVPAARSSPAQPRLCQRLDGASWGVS
UniProt Q8TDV0, sequence (whole entry, looked up): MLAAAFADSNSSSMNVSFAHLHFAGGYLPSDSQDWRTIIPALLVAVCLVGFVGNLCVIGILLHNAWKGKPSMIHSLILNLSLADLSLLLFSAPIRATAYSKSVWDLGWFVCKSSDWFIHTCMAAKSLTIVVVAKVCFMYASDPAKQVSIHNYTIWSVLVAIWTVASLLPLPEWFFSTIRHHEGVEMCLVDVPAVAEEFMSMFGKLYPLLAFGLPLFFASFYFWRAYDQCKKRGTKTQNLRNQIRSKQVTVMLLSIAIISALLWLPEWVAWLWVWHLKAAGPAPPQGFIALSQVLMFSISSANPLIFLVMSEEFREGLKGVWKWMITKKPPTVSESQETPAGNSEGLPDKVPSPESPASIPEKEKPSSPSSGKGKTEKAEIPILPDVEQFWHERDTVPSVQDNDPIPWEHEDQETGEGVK
UniProt P31391, sequence (whole entry, looked up): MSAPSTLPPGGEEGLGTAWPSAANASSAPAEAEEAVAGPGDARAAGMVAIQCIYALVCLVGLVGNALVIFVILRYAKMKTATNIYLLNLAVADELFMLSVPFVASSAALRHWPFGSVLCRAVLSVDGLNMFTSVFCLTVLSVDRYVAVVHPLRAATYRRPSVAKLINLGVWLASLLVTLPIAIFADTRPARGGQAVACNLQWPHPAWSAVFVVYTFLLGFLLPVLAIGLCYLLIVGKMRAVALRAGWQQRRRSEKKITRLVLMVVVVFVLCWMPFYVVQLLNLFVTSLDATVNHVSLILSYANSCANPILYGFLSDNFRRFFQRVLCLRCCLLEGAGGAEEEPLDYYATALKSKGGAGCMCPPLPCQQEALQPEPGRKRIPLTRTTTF
UniProt P43115, sequence (whole entry, looked up): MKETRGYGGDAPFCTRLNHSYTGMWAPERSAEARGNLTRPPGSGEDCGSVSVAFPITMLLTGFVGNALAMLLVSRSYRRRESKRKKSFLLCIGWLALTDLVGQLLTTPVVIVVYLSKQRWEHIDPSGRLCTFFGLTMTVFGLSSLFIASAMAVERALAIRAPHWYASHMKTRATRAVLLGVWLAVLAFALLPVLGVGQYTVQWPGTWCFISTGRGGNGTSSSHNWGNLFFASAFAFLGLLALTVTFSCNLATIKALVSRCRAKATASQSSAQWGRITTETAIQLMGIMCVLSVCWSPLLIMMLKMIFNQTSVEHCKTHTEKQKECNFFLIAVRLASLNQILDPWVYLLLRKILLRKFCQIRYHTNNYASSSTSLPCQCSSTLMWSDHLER
UniProt Q9BYT3, sequence (whole entry, looked up): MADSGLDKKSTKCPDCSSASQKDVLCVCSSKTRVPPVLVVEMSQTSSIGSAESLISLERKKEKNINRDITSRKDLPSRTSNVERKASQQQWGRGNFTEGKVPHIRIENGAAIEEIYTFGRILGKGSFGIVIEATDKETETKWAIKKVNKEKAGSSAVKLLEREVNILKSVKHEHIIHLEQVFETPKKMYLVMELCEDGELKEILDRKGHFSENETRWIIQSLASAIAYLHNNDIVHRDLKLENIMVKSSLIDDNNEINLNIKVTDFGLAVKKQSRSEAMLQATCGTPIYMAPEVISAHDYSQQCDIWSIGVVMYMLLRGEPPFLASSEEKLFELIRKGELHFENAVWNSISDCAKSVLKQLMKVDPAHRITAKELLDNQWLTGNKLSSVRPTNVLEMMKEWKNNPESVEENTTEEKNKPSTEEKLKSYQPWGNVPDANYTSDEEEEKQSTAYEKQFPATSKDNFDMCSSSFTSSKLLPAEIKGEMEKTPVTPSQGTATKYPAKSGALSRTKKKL
UniProt Q8NFJ6, sequence (whole entry, looked up): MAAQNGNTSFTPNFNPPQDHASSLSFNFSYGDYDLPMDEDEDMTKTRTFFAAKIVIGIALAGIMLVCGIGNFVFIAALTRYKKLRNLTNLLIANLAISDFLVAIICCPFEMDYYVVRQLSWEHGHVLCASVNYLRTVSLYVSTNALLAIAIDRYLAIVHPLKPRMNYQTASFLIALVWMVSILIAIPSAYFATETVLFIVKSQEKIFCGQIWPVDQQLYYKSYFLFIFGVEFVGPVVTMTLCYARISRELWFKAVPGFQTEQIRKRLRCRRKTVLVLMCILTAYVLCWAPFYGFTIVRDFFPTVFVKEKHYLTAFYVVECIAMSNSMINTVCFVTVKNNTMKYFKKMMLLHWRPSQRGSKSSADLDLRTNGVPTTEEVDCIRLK
UniProt P46663, sequence (whole entry, looked up): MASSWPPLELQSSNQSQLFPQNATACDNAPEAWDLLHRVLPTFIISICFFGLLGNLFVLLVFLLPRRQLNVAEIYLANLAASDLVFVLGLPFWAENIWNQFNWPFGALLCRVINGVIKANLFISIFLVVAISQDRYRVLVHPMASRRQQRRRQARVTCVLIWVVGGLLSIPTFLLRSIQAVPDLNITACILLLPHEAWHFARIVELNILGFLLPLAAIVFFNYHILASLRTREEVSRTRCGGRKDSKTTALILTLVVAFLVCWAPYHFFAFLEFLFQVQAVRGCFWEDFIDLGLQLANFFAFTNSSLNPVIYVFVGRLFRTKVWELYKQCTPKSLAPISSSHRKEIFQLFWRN
UniProt P08908, sequence (whole entry, looked up): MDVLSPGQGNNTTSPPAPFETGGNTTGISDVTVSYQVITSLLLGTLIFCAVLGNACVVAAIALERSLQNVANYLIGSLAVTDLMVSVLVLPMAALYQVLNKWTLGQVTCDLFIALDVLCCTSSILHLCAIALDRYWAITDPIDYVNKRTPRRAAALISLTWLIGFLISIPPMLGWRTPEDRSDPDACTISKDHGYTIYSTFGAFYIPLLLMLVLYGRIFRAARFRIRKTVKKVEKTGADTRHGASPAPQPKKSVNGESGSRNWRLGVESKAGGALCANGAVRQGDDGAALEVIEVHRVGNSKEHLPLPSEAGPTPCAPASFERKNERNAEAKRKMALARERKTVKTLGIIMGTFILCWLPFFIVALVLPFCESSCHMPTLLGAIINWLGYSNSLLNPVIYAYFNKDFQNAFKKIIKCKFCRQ

Block 1 — action: inhibitor; tested at: 10 µM; baseline: control
Target: Diamine acetyltransferase 1 (Homo sapiens, UniProt P21673)
Residues (P21673 1-171): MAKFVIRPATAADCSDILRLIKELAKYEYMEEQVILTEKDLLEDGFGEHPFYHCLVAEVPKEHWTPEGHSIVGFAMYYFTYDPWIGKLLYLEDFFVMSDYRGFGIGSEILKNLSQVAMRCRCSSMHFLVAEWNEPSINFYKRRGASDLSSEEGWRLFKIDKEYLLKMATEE
SMILES | remaining activity [%]
COc1cc2c(=O)c(-c3ccc(O)cc3)coc2cc1O[C@@H]1O[C@H](CO)[C@@H](O)[C@H](O)[C@H]1O | 93.8
O=C(/C=C/c1ccc(O)c(O)c1/C=C/c1ccc(O)c(O)c1)O[C@H](Cc1ccc(O)c(O)c1)C(=O)O | 73.9
C[C@@H]1O[C@@H](O[C@H]2[C@H](OC(=O)[C@]34CCC(C)(C)C[C@H]3C3=CC[C@@H]5[C@@]6(C)C[C@H](O)[C@H](O[C@@H]7O[C@H](CO)[C@@H](O)[C@H](O)[C@H]7O)C(CO)(CO)[C@@H]6CC[C@@]5(C)[C@]3(C)C[C@H]4O)OC[C@H](O)[C@@H]2O)[C@H](O)[C@H](O)[C@H]1O[C@@H]1OC[C@@H](O)[C@H](O)[C@H]1O | 119
CCCCCCCCCCCCCCO | 106
O=C(O)/C=C/c1cccc(O)c1 | 100

Block 2 — effect on: cell-free assay; method: competition with immobilised ligand; tested at: 1 µM
Compound: CNC(=O)Nc1ccc2c(c1)[C@@]1(CC2)OC(=O)N(CC(=O)N(Cc2ccc(F)cc2)[C@@H](C)C(F)(F)F)C1=O
target | remaining binding [%]
MAPK14 (Homo sapiens, UniProt Q16539) | 100
STK33 (Homo sapiens, UniProt Q9BYT3) | 100
Ribosomal protein S6 kinase alpha-1, N-terminal kinase domain (RPS6KA1, Homo sapiens, UniProt Q15418) | 96
Tyrosine-protein kinase ABL1, phosphorylated (ABL1, Homo sapiens, UniProt P00519, F317I) | 73
SIK3 (Homo sapiens, UniProt Q9Y2K2) | 100
Tyrosine-protein kinase ABL1, non-phosphorylated (ABL1, Homo sapiens, UniProt P00519, Q252H) | 88
NIM1K (Homo sapiens, UniProt Q8IY84) | 76
CLK3 (Homo sapiens, UniProt P49761) | 84
CDK8 (Homo sapiens, UniProt P49336) | 96
IRAK4 (Homo sapiens, UniProt Q9NWZ3) | 94
CASK (Homo sapiens, UniProt O14936) | 66
FGFR3 (Homo sapiens, UniProt P22607, G697C) | 96
TAOK2 (Homo sapiens, UniProt Q9UL54) | 95
PHKG1 (Homo sapiens, UniProt Q16816) | 100
PIM3 (Homo sapiens, UniProt Q86V86) | 89

Block 3 — Compound: NC(N)=NC(=O)c1nc(Cl)c(N2CCCCCC2)nc1N; effect on: β-arrestin recruitment; action: agonist; method: PRESTO-Tango; tested at: 10 µM; baseline: untreated
target | fold over basal
FPR1 (Homo sapiens, UniProt P21462) | 0.57 fold
SSTR4 (Homo sapiens, UniProt P31391) | 1.73 fold
PTGER3 (Homo sapiens, UniProt P43115) | 1.39
MTNR1A (Homo sapiens, UniProt P48039) | 0.92
G-protein coupled receptor 151 (GPR151, Homo sapiens, UniProt Q8TDV0) | 1.61
HTR1A (Homo sapiens, UniProt P08908) | 1.45
BDKRB1 (Homo sapiens, UniProt P46663) | 1.17
GPR35 (Homo sapiens, UniProt Q9HC97) | 0.72
CYSLTR1 (Homo sapiens, UniProt Q9Y271) | 0.72
PROKR2 (Homo sapiens, UniProt Q8NFJ6) | 0.78
ADRB3 (Homo sapiens, UniProt P13945) | 0.77
HTR1F (Homo sapiens, UniProt P30939) | 0.65
G protein-coupled receptor 88 (Homo sapiens, UniProt Q9GZN0) | 1

Block 4 — organism: Sarcocystis neurona; effect on: parasite growth; tested at: 10 µM
SMILES | inhibition
CCC1=C[C@@H]2CN(C1)Cc1c([nH]c3ccccc13)[C@@](C(=O)OC)(c1cc3c(cc1OC)N(C)[C@H]1[C@@](O)(C(=O)OC)[C@H](OC(C)=O)[C@]4(CC)C=CCN5CC[C@]31[C@@H]54)C2.O=C(O)C(O)C(O)C(=O)O.O=C(O)C(O)C(O)C(=O)O | 11.3%
O=C1CN2Cc3c(ccc(Cl)c3Cl)N=C2N1 | -22.7%
Cc1cn([C@H]2C[C@H](N=[N+]=[N-])[C@@H](CO)O2)c(=O)[nH]c1=O | -20.5%
CCCN(CCC)S(=O)(=O)c1ccc(C(=O)O)cc1 | -26.8%
CC(COc1ccccc1)N(CCCl)Cc1ccccc1 (centres unmarked) | -26.6%
O=C(NCCN1CCOCC1)c1ccc(Cl)cc1 | -33.4%
Cl.O=C1[C@H]2CCCC[C@H]2C(=O)N1CCCCN1CCN(c2nsc3ccccc23)CC1 | 73.9%
Cl.NC1CCN(c2cccc(Cl)n2)CC1 | -19.5%
NC1CCN(c2nc3c(cc2F)c(=O)c(C(=O)O)cn3-c2ccc(F)cc2F)C1 (centres unmarked) | 10.5%
COc1ccc(CC(C)NCC(O)c2ccc(O)c(NC=O)c2)cc1.COc1ccc(CC(C)NCC(O)c2ccc(O)c(NC=O)c2)cc1.O.O.O=C(O)/C=C/C(=O)O (centres unmarked) | -25.9%
Nc1ncnc2c1ncn2[C@@H]1O[C@H](CO)C[C@H]1O | -20.5%
C[C@H]1C[C@H]2[C@@H]3CCC4=CC(=O)C=C[C@]4(C)[C@@]3(F)[C@@H](O)C[C@]2(C)[C@@]1(O)C(=O)CO | -37.4%
CN1CCN(CCCN2c3ccccc3Sc3ccc(Cl)cc32)CC1 | 12.7%
CC(=O)/N=c1/sc(S(N)(=O)=O)nn1C | -19.8%

Some of these lines once more (block 3):
target | fold over basal
G protein-coupled receptor 88 (Homo sapiens, UniProt Q9GZN0) | 1
MTNR1A (Homo sapiens, UniProt P48039) | 0.92
PROKR2 (Homo sapiens, UniProt Q8NFJ6) | 0.78
